Assay results from different studies.
Compare with care: the assays were run in different laboratories.

| SMILES | host | medium | route | dose | time | setting | Tmax |
| --- | --- | --- | --- | --- | --- | --- | --- |
| C[C@@H]1CCC[C@H](n2cnc(-c3cc(Cl)ccc3-n3cc(Cl)nn3)cc2=O)c2cc(ccn2)-c2c(cnn2C(F)F)NC1=O | human | plasma | oral | 500 mg |  | single dose, fed, healthy volunteers | 4 h |
| CNC(=O)c1ccccc1Nc1cc(Nc2ccc(N3CCOCC3)cc2OC)ncc1C(F)(F)F | BALB/c mouse | plasma | intraperitoneal | 30 mg/kg |  | single dose | ≤ 0.25 h |
| CCCOc1ccc([C@H]2CNC(=O)N2c2ccc3[nH]cnc3c2)cc1 | human | plasma | oral | 300 mg |  | multiple doses, twice daily, fasted | 1 h |
| CC1=C2C[C@H]3[C@@H](CC[C@@H]4C[C@H](NS(C)(=O)=O)CC[C@@]43C)[C@@H]2CC[C@@]2(C1)O[C@@H]1C[C@H](C)CN[C@H]1[C@H]2C | patients | plasma | oral | 30 mg daily | day 22, cycle 1 |  | 5.05 h |
| CNc1nc(Nc2ccc(-n3cnc(C)n3)c(OC)c2)nc2c1CC[C@H]2c1ccc(F)cc1 | human | plasma | oral | 900 mg |  | single dose, healthy volunteers | 4 h |
| CCCC[C@H](NC(C)=O)C(=O)N[C@H]1CCC(=O)NC[C@@H](C(=O)N[C@@H](Cc2c[nH]c3ccccc23)C(N)=O)NC(=O)[C@H](CCCNC(=N)N)NC(=O)[C@@H](Cc2ccccc2)NC(=O)[C@H](Cc2c[nH]cn2)NC1=O | CD Sprague Dawley rat, female | plasma | subcutaneous | 5.0 mg/kg daily | day 1 |  | 0.5 h |
| Nc1ncc(-c2cnn(CCO)c2)c2scc(-c3ccc(NC(=O)Nc4cccc(F)c4)cc3)c12 | human | plasma | oral | 160 mg |  | patients | 3.3 h |
| CS(=O)(=O)c1ccc(-c2cnc(N)c(-c3ccc(C(F)(F)F)nc3)c2)cc1 | pregnant female Sprague-Dawley rat | plasma | oral | 10 mg/kg/day | gestation day 17 |  | 4 h |
| COc1cccc(-c2n[nH]c(SCc3ccccn3)n2)c1OC | Sprague-Dawley rat, both sexes | plasma | oral, diet | 10 mg/kg/day | day 90 |  | 6 h |
| CC(=O)N[C@H]1CC[C@H](NC(=O)CN2CCN(c3nncc(-c4ccc(C)cc4)n3)CC2)CC1 | human | plasma | oral | 200 mg |  | single dose, fasted, healthy volunteers | 1.3 h |
| C#C[C@]1(CO)O[C@@H](n2cnc3c(N)nc(F)nc32)C[C@@H]1O | human | plasma | oral | 200 mg |  | single dose, fasted | 0.5 h |
| CCN1CCN(c2ccc(Nc3cc(N(C)C(=O)Nc4c(Cl)c(OC)cc(OC)c4Cl)ncn3)cc2)CC1 | Crl:WI(Han) rat, juvenile female | plasma | oral gavage | 1.0 mg/kg/day |  | postnatal day 17 | 3 h |
| CCn1c2ccccc2c2cc(-n3nncc3-c3ccccc3)ccc21 | female BALB/c mouse | spleen | oral | 10 mg/kg |  | single dose | 4.1 h |
| CC(=O)O[C@@]12CO[C@@H]1C[C@H](O)[C@@]1(C)C(=O)[C@H](O)C3=C(C)[C@@H](OC(=O)[C@H](O)[C@@H](NC(=O)OC(C)(C)C)c4ccccc4)C[C@@](O)([C@@H](OC(=O)c4ccccc4)[C@H]21)C3(C)C | male Kunming mouse | lung | oral | 20 mg/kg |  |  | 0.25 h |
| Cc1nc2cccc(OCC(C)(C)C(=O)NC(C)C)c2c(N)c1C(=O)O | male Sprague-Dawley rat | plasma | oral gavage | 100 mg/kg | day 1 |  | 0.33 h |

For quick reference, copied from above:
| SMILES | host | medium | route | dose | time | setting | Tmax |
| --- | --- | --- | --- | --- | --- | --- | --- |
| CC(=O)O[C@@]12CO[C@@H]1C[C@H](O)[C@@]1(C)C(=O)[C@H](O)C3=C(C)[C@@H](OC(=O)[C@H](O)[C@@H](NC(=O)OC(C)(C)C)c4ccccc4)C[C@@](O)([C@@H](OC(=O)c4ccccc4)[C@H]21)C3(C)C | male Kunming mouse | lung | oral | 20 mg/kg |  |  | 0.25 h |
| CCn1c2ccccc2c2cc(-n3nncc3-c3ccccc3)ccc21 | female BALB/c mouse | spleen | oral | 10 mg/kg |  | single dose | 4.1 h |
